Experimental data pooled from the literature.
Parts stem from different laboratories: compare values within a part only.

Block 1 — method: RNA Bind-n-Seq; molecule type: RNA; medium: in vitro; concentration: 200 nM; notes: whole 134-nt RNA, ends assumed; together with: 150 mM KCl; reference: input library; direction: higher = stronger binding
Target: Fragile X messenger ribonucleoprotein 1, C-terminal low-complexity region (Fmr1, Mus musculus, UniProt P35922)
Shared flanks, not repeated: GGGAGUUCUACAGUCCGACGAUC … UGGAAUUCUCGGGUGUCAAGG
`CCACCAUGACCCCUGACGGUCUGGCUGUGACCCCAACGCCGGUGCCCGUGGUCGGGAGCCAGAUGACCAGACAAGCCCGGCGCCUCUACG` has a log2 enrichment of 0.532.
`CUCAAGUCCUGUGCUACACAUCGUAUGUACCGAAUCGGUUUGGUGGUUUUUGGAAAGUAUUAUGUUACGCCGUUCGGAUCUGCACUUCCA` has a log2 enrichment of 0.00253.
`CUCAAGUCCUGUGCUACACAUCGUAUGUACCGAAUCGGCCCGGGCCCGGCCCGGAAAGUAUUAUGUUACGCCGUUCGGAUCUGCACUUCC` has a log2 enrichment of -0.0261.
`UCAAGUCCUGUGCUACACAUCGUAUGUACCGAAUCGGGGUUGGUUGGGUUGGGGAAAGUAUUAUGUUACGCCGUUCGGAUCUGCACUUCC` has a log2 enrichment of 0.919.
`CUGUGCUACACAUCGUAUGUACCGAAUCGGUUUUUUUGGGGUUUUUUUGGGUUUUUUUGGGGAAAGUAUUAUGUUACGCCGUUCGGAUCU` has a log2 enrichment of -0.241.
`CUCAAGUCCUGUGCUACACAUCGUAUGUACCGAAUCGGUUUUUUUGGAGGUGGAAAGUAUUAUGUUACGCCGUUCGGAUCUGCACUUCCA` has a log2 enrichment of -0.167.
With `GUCCUGUGCUACACAUCGUAUGUACCGAAUCGGAAAAAGGGGAAAAAGGGGAAAAAGGGAAAGUAUUAUGUUACGCCGUUCGGAUCUGCA` the log2 enrichment was -0.024.
For `UGGCCCUGGUGGCAUGCGGGGAGUAAGAGGUGGCCUCAUGGAUCGUGGUGGUCCCGGUGGAAUGUUCAGAGGUGGCCGUGGUGGAGACAG`, the log2 enrichment was -0.0241.
`ACCAUGCAGGUGGGCAUCUUUGGGAAGUGGGGCAAGGGGGGGAUAGGGAGGGGGGUAACACUUUGGGAACAGGUGGUCCAAGGUCGUUUC` has a log2 enrichment of 0.594.
With `CCUGUGCUACACAUCGUAUGUACCGAAUCGGCCCCCCCGGGCCCCCCCGGGGCCCCCCCGGAAAGUAUUAUGUUACGCCGUUCGGAUCUG` the log2 enrichment was -0.675.
For `UGGCCCUGGUGGCAUGCGGUGAGGAAGAGGUGGCCUCAUGGAUCGUGGUGGUCCCGGUGGAAUGUUCAGAGGUGGCCGUGGUGGAGACAG`, the log2 enrichment was 0.183.
With `CACAGACAACACGCACAAACACAGACACAGAGGGAAGGGGUUGGGAUGGGGACAGGGUGCACAGCAGGGCGGGGUAGGACCCCAGCCCCU` the log2 enrichment was 1.15.
The log2 enrichment of `CCUGUGCUACACAUCGUAUGUACCGAAUCGGGGUUUUUUUGGUUUUUUUGGUUUUUUUGGAAAGUAUUAUGUUACGCCGUUCGGAUCUGC` is reported as -0.478.
For `AGUCCUGUGCUACACAUCGUAUGUACCGAAUCGGAAAAAAAGGUUUGGAAAAAAAGGAAAGUAUUAUGUUACGCCGUUCGGAUCUGCACU`, the log2 enrichment was -1.49.

Block 2 — method: RNA Bind-n-Seq; molecule type: RNA; medium: in vitro; concentration: not given; reference: input RNA pool; direction: higher = stronger binding
Target: RING finger protein unkempt homolog, zinc fingers 1-6, GST-SBP tag (UNK, Homo sapiens, UniProt Q9C0B0, residues 30-357)
Chain of UniProt Q9C0B0 (30-357, looked up): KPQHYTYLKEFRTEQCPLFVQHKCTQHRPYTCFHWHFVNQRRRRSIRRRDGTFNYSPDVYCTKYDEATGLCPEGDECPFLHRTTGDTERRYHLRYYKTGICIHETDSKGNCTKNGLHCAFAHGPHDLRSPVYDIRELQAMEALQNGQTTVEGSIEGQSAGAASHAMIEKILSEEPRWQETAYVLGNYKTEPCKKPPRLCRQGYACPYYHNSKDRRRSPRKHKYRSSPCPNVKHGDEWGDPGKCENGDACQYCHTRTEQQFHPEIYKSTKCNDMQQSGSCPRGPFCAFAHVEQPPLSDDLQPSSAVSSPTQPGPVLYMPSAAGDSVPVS
Notes: RNA with constant flanks, human and mouse sites, ends assumed
Shared flanks, not repeated: GGGAGUUCUACAGUCCGACGAUC … CAACAGAGGAUUGAGCAUCA
`ACAUCCUCAGUUUUUCAUGAAGUUUCUAGACCCAAACCGUUAUCGGCAUUUCCAAAGAAAGCUAUAACUGGAACAGUGUUAACCCGAUCUACGUUCAUCAGCAAUGUUUUAUCUAAAAUU` has a bound/input enrichment of 0.201 ratio.
With `UCUUGUGGAGGGUGAGUUUUACAAGGAUGUUGUGGCAAAAGUUUUUUGUCGGUUUUUGAACCUUUUCUGGAAAGACAGUCUUGUCUGGGCAGACUUGGAUUUCAGGACUCAAGGCACACU` the bound/input enrichment was 0.142 ratio.
`GCAGCUUUGAAAAAACACCAUGAAGAAGAAAUCGUUCAUCAUAAGAAGGAGAUUGAGCGUCUGCAGAAAGAAAUUGAGCGCCAUAAGCAGAAGAUCAAAAUGCUAAAACAUGAUGAUUAA` has a bound/input enrichment of 0.332 ratio.
`GAAAAAUUUGAAAUGUUUUUGGUUCACUAGUACAAUGUUUGGUUUUAUUCCUAAAGUAAAUAGCUAUCUAAGAGAGGGCAUUUUCACUUUUUUUUUUUUAAAUUUUGAGACAGGCUCUCA` has a bound/input enrichment of 6.29 ratio.
`AUGAUGAAAGGAGAAUUUUAUGUCAUUGAAUAUGCUGCUUGUGACGCUACUUACAAUGAAAUAGUCACAUUUGAACGACUUCGGCCUGUCAAUCAAAAUAAAACUGUCAAAAAAAAUACC` has a bound/input enrichment of 0.204 ratio.
With `AACAACAUCAAGGAAGUACUUCUGUUUCCUGCCAUGAAACCCGAAGACAAGAAGGAGAAUGUAGCAACCACUGAUACACUGGAAAGCACAACAGUUGGCACUUCUGUCUAGAAAAUAAUA` the bound/input enrichment was 0.758 ratio.
The bound/input enrichment of `GCCCAUGACUCCGUGGCCCAGGAGGGCCAGUGUCGGGUAGAUGACAAAGUGAAUUUCCAUUUUAUUCUGUUCAACAACGUGGACGGCCAUCUGUACGAGCUCGAUGGGCGAAUGCCCUUU` is reported as 0.185 ratio.
`AGCCAGGGCAAGCCUGGCAGUCCAGAACCUGAAACAGAGCCUGUUUCUUCAGUUCAGGAGAACCAUGAAAACGAAAGAAUUCCUCGGCCACUCAGCCCAACUAAAUUACUGCCUUUCUUA` has a bound/input enrichment of 0.139 ratio.
`UUAUUUUACUCAGUUUUGAAAUGAUUUUUUUACUGGCUCUAUUGCCUUAAAAUAACUAAGAGAUUAAUGAUUCUUUGUAUAAUUUUCCUUUUCUUUGUUCUUUUUUUUACAUUUCGCAGA` has a bound/input enrichment of 0.349 ratio.
`AUGACAGGAAACAUCCCAACAUGGCUCACUGAGCUAGGAAAAACCUGCCCAUUUUUCUUUCCUUUUGAUACCCGACAAAUGCUUUUUUAUGUAACUGCAUUUGAUCGGGACCGGGCAAUG` has a bound/input enrichment of 0.145 ratio.
With `AGAGUCUUUCAACACUUUGCACAUGAUGUAUCACGAAGCUACAGCUUGCCAUGUGACUGGAGAUUUAGUAGAACUUCUGUCAAUAUUUCUUUCGGUUUUGAAGUCUACACGCCCUUAUCU` the bound/input enrichment was 0.259 ratio.

Block 3 — method: protein binding microarray; molecule type: double-stranded DNA, one strand shown; medium: in vitro; concentration: not given; reference: not given; direction: higher = stronger binding
Target: Histone acetyltransferase KAT6A, winged helix 2, GST fusion (KAT6A, Homo sapiens, UniProt Q92794, residues 85-181)
Notes: 8-mer, flanks averaged, mean of 2 arrays, mostly near background
Target sequence (chain): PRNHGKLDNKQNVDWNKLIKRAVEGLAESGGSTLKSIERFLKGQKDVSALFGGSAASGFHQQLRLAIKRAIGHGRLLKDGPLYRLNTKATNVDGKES
`AGGTAGTG` gave an E-score of -0.199.
`TCCACGGA` gave an E-score of 0.217.
`CAGAACGC` has an E-score of 0.0596.
The E-score of `CTATTACA` is reported as -0.0623.
`AAACTGAA` has an E-score of -0.0604.
With `TCACCACA` the E-score was 0.0959.
`CTCAAAGA` gave an E-score of -0.0698.
For `TAAGTCTA`, the E-score was -0.277.
`ATTGGACA` has an E-score of 0.106.
With `ACCTATCG` the E-score was -0.00236.
`CCCGAACG` has an E-score of 0.0231.
For `AGTGTTCA`, the E-score was -0.161.
The E-score of `AGTCCCGG` is reported as -0.0767.
`GGCCTTCA` gave an E-score of 0.0106.
The E-score of `GCCGCCAA` is reported as 0.123.
The E-score of `CCTTAGCA` is reported as 0.0908.
With `CTCCCCAG` the E-score was -0.207.
`ACTCTTGA` has an E-score of -0.0669.
The E-score of `AAGACACA` is reported as -0.0598.
`GACAAGGA` gave an E-score of -0.0252.
For `CTTCAAAC`, the E-score was 0.0805.

Block 4 — method: competition protein-binding microarray; molecule type: double-stranded DNA, one strand shown; medium: in vitro; concentration: 2 µM; together with: Pho4 competitor, 0.05 µM; direction: higher = stronger binding; shared flanks, not repeated: … GTCTTGATTCGCTTGACGCTGCTG
Target: Centromere-binding protein 1, full length, His-tagged (CBF1, Saccharomyces cerevisiae, UniProt P17106, residues 1-351)
Chain of UniProt P17106 (whole entry, looked up): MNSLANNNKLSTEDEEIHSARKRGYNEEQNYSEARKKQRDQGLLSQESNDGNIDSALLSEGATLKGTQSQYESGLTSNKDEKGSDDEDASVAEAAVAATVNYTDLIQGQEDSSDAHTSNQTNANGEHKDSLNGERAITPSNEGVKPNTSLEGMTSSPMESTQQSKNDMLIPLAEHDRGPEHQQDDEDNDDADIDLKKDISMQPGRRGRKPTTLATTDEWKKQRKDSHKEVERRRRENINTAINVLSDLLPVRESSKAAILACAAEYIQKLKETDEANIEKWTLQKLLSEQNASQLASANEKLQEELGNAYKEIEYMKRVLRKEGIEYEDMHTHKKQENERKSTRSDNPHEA
Notes: whole 60-bp probe, lowest competitor level
With `CGGGGTTAAGTTTGAAGTGTGGGTGGCTTGCAGCAG` the fluorescence intensity was 79.1 a.u.
`CTTCTGTAAATTTGTACCGTGGGTGGACGCGCCCCG` gave a fluorescence intensity of 77.4 a.u.
The fluorescence intensity of `TGCGCAACAACTTGTGACGTGGGTGTATGTCTAGAA` is reported as 74.9 a.u.
`AAAATGAGATAGATACATGCGTGAGACAATTGCCTT` gave a fluorescence intensity of 71.2 a.u.
For `AAATTACTAAGTTGCTTCGTGGGTGACGCCGTATGA`, the fluorescence intensity was 69.8 a.u.
For `GTTAAAAATTATCCTCAGGTGATGTTTTGGTAGAAG`, the fluorescence intensity was 235 a.u.
For `CTAACGAAGGTTTGGGTTGTGGGTGACAAGCCAAGT`, the fluorescence intensity was 60.2 a.u.
With `CATACCCAACCTTGAATAGTGGGTGAAGATATTTGT` the fluorescence intensity was 73 a.u.
`CTTTCCCGATCTTGATACGTGGGTGTAGCACATTTG` gave a fluorescence intensity of 64.6 a.u.
`TATGTACGCCTTTTCCGCGTGCGATGGTCTTTACCG` gave a fluorescence intensity of 69.7 a.u.
For `GGTTCTGTTTCGATGCACGCTAGATTACTCGAACCA`, the fluorescence intensity was 82.1 a.u.
With `CAATTACTGAAGCTTCACGTGCCAGAACGTAAAAAT` the fluorescence intensity was 1330 a.u.
For `GCGCCTTTACGCCTTCACGTGGAACAAGACACTTTA`, the fluorescence intensity was 622 a.u.
For `CGATGATGACTACATCATGTGACAGGTTAATGGTCA`, the fluorescence intensity was 1690 a.u.
The fluorescence intensity of `CACTGAGTGAGCCGCCTCGTGCGATGCGTTAGAAAA` is reported as 84.1 a.u.
`TTCTGGACGTATCTGCACATGTGTGTTGCTTTTGTT` gave a fluorescence intensity of 140 a.u.
`GAGTTTGGAATCAAACTCGTGGCCGACCTATGGATC` gave a fluorescence intensity of 70.7 a.u.
The fluorescence intensity of `CGTCCTAGTGATTGTAAGGTGGGTGCCATGAGGAAG` is reported as 83.2 a.u.
For `TCAAGGCGGACATACTTCGTGATGGAAGCTCATGTT`, the fluorescence intensity was 74 a.u.
`ATCTAGAATATCCTACACGTCATCAGCGATTATCCG` gave a fluorescence intensity of 78.4 a.u.
The fluorescence intensity of `GAGGATGCTCTCGGCAGCGTGACTCGAATTGAGCCC` is reported as 365 a.u.
`CGTCCTAGCGATTGAGGGGTGGGTGCCATGAGGAAG` has a fluorescence intensity of 80.8 a.u.
For `ACTTGTGGCTACATACTCGGTCAAGCCGCTTTGCTG`, the fluorescence intensity was 58.9 a.u.
`TGCGCAACAACTTTTCACGTGGCATTATGTCTAGAA` gave a fluorescence intensity of 877 a.u.
`CGAATGCTCTTGAGCATCGTGGCCGTCACCCGGTAT` has a fluorescence intensity of 71.8 a.u.

For quick reference, copied from above (block 4):
`CTTTCCCGATCTTGATACGTGGGTGTAGCACATTTG` gave a fluorescence intensity of 64.6 a.u.
`TATGTACGCCTTTTCCGCGTGCGATGGTCTTTACCG` gave a fluorescence intensity of 69.7 a.u.
For `GGTTCTGTTTCGATGCACGCTAGATTACTCGAACCA`, the fluorescence intensity was 82.1 a.u.
With `CAATTACTGAAGCTTCACGTGCCAGAACGTAAAAAT` the fluorescence intensity was 1330 a.u.
For `GCGCCTTTACGCCTTCACGTGGAACAAGACACTTTA`, the fluorescence intensity was 622 a.u.
For `CGATGATGACTACATCATGTGACAGGTTAATGGTCA`, the fluorescence intensity was 1690 a.u.
The fluorescence intensity of `CACTGAGTGAGCCGCCTCGTGCGATGCGTTAGAAAA` is reported as 84.1 a.u.
`TTCTGGACGTATCTGCACATGTGTGTTGCTTTTGTT` gave a fluorescence intensity of 140 a.u.
`GAGTTTGGAATCAAACTCGTGGCCGACCTATGGATC` gave a fluorescence intensity of 70.7 a.u.
The fluorescence intensity of `CGTCCTAGTGATTGTAAGGTGGGTGCCATGAGGAAG` is reported as 83.2 a.u.
For `TCAAGGCGGACATACTTCGTGATGGAAGCTCATGTT`, the fluorescence intensity was 74 a.u.
